Measurements pooled from the literature.
Lines come from different studies, so protocols differ. ± marks the error that the study gave.
Sequence of UniProt Q7KZI7 (whole entry, looked up): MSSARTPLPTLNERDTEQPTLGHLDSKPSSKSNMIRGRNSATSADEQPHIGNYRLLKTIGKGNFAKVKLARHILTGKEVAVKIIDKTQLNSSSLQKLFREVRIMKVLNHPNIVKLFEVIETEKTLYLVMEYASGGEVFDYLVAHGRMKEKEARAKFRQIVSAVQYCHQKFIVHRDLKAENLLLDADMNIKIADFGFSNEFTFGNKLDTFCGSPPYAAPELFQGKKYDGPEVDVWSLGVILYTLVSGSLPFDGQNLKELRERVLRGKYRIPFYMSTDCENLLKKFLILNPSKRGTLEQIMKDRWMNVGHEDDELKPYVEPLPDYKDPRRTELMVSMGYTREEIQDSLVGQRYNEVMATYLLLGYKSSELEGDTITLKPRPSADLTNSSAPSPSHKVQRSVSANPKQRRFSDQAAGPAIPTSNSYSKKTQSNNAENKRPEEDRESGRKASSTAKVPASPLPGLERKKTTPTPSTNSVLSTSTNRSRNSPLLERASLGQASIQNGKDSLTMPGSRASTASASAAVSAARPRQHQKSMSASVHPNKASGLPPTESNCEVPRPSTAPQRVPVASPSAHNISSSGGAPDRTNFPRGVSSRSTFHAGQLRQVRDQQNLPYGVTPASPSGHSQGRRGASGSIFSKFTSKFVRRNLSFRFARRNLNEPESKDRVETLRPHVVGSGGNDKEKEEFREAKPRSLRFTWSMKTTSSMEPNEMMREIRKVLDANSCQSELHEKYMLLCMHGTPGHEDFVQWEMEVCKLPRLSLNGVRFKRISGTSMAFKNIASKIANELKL
Sequence of UniProt P08684 (whole entry, looked up): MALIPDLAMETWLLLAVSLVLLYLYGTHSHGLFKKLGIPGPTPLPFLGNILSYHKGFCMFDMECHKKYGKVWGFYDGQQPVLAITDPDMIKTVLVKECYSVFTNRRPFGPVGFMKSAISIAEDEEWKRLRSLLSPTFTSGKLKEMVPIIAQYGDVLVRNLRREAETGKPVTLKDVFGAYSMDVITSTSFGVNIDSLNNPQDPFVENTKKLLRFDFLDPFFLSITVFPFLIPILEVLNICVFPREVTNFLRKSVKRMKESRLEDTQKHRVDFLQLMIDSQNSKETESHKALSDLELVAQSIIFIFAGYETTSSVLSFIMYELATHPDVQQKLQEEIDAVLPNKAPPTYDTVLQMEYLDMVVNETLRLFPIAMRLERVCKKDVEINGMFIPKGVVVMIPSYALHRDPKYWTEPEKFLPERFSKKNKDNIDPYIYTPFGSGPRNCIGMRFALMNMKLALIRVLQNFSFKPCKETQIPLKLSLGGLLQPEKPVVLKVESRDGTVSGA
Sequence of UniProt P00761 (whole entry, looked up): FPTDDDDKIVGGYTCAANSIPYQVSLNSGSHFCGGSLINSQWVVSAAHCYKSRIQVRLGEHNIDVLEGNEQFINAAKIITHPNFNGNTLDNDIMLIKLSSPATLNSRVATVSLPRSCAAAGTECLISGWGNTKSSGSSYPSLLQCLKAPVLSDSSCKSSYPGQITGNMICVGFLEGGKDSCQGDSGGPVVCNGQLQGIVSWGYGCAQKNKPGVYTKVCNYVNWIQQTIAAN
Sequence of UniProt P24462 (whole entry, looked up): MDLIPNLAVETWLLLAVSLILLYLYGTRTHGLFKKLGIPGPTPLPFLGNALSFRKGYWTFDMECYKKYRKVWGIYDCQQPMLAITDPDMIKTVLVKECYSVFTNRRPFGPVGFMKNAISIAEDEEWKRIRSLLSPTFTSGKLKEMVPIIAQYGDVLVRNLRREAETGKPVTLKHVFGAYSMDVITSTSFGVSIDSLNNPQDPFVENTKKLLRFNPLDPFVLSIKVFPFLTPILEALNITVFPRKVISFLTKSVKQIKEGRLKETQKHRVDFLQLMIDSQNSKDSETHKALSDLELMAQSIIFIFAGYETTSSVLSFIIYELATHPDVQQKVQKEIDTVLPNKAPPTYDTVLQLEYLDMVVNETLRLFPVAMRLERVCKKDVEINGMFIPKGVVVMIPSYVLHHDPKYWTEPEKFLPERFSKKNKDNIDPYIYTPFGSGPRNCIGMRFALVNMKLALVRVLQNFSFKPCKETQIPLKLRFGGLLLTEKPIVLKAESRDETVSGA
Sequence of UniProt P49116 (whole entry, looked up): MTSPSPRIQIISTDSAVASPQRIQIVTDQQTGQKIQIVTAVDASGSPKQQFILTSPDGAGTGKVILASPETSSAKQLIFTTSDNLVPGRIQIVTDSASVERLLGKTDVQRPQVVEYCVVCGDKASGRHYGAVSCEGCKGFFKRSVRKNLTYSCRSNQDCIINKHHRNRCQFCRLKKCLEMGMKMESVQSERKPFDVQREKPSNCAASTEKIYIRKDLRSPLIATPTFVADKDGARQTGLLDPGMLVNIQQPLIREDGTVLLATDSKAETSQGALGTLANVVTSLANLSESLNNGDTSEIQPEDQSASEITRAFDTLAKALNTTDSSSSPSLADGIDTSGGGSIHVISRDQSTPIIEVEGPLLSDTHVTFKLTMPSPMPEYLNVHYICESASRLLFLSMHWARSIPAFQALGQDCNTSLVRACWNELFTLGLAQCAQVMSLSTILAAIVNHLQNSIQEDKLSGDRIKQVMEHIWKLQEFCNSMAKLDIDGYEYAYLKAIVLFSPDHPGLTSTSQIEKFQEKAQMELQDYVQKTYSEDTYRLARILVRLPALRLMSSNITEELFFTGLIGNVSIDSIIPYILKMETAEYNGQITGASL

`COc1c(O)cc2c(c1O)C(=O)c1c(cc(C)c(O)c1OC)C2=O` gave a cell viability of 58.2 ± 8.21% (HepaRG co-cultured with HK-2; MTT; 266.67 µM, 24 h; relative to: untreated control).
The cytotoxicity of `Cc1cc(C(=O)NC(C)(C)COc2cccc3c2C(N)=NS(=O)(=O)N3)cc(C)n1` is reported as 11% (human peripheral blood lymphocytes; CBPI, preliminary test; 6 µg/mL, 24 h; relative to: vehicle control).
With `CCc1nc(C(N)=O)c(Nc2ccc(N3CCC(N4CCN(C)CC4)CC3)c(OC)c2)nc1NC1CCOCC1` the AUCtau was 3090 ng·h/mL (Japanese patients, plasma; oral, 40 mg, cycle 1 day 28, multiple doses, median).
`CC1(F)CN(C(=O)Cn2c(=O)c(C(=O)NCc3ccc(Cl)cc3)cc3nc(N4CCN(CC(=O)O)C4=O)cnc32)C1` gave a selectivity index of greater than 31.4 (human cytomegalovirus; GFP reporter; AD169-GFP; retest; relative to: CC50 over EC50).
The Kd of `OCCOCCN1CCN(C(c2ccccc2)c2ccc(Cl)cc2)CC1` (stereo not shown) is reported as 7.42 nM (Nuclear receptor subfamily 2 group C member 2, ligand-binding domain (Homo sapiens, UniProt P49116); SPR imaging).
With `Cc1cc(=O)oc2cc(NC(=O)CCCCCCC(=O)NO)ccc12` the viability was 48.3% (OCI-Ly1; 0.5 µM, 120 h).
For `O=C1c2cccc(O)c2C(=O)c2c(O)cc(CO)cc21`, the cell viability was 88.9 ± 6.23% (HepaRG co-cultured with HK-2; MTT; 16.67 µM, 24 h; relative to: untreated control).
`COc1cccc2c(Nc3ccc4[nH]c(C(=O)N/N=C/c5ccc(SC)cc5)cc4c3)cc(C)nc12` has a necrotic cells of 0.61 ± 0.23 (COS-7; 3 µM, 24 h, 0.1% DMSO, unit not given; relative to: vehicle control).
The EC50 of `CN1CC2c3ccccc3Oc3ccc(Cl)cc3C2C1` (stereo not shown) is reported as 24.8 nM (5-hydroxytryptamine receptor 1A (HTR1A, Homo sapiens, UniProt P08908, K345A/K405A); agonist).
`CC[C@H]1[C@@H](O)[C@@H]2[C@H](CC[C@]3(C)[C@@H]([C@H](C)CCNC(=O)NS(=O)(=O)c4ccc(C(C)(C)C)cc4)CC[C@@H]23)[C@@]2(C)CC[C@@H](O)C[C@@H]12`: “Vd/F geometric mean” 431 L (Cytochrome P450 3A4 (CYP3A4, Homo sapiens, UniProt P08684); human, plasma; 10 mg, day 1, compound alone).
`O=C(O)C[C@H](O)C[C@H](O)/C=C/c1c(C2CC2)nc2ccccc2c1-c1ccc(F)cc1` has a confluence of 0.66 ± 0.07 (COS-7; 30 µM, 24 h, 0.1% DMSO, unit not given; relative to: vehicle control).
For `CC[C@H](C)[C@H](NC(=O)[C@H](CO)NC(=O)[C@H](Cc1ccc(O)cc1)NC(=O)[C@H](CC(=O)O)NC(=O)[C@H](CO)NC(=O)[C@@H](NC(=O)[C@H](Cc1ccccc1)NC(=O)[C@@H](NC(=O)CNC(=O)[C@H](CCC(=O)O)NC(=O)[C@H](C)NC(=O)[C@@H](N)Cc1ccc(O)cc1)[C@@H](C)O)[C@@H](C)CC)C(=O)N[C@@H](C)C(=O)N[C@@H](CCSC)C(=O)N[C@@H](CC(=O)O)C(=O)N[C@@H](CCCCN)C(=O)N[C@H](C(=O)N[C@@H](Cc1c[nH]cn1)C(=O)N[C@@H](CCC(N)=O)C(=O)N[C@@H](CCC(N)=O)C(=O)N[C@@H](CC(=O)O)C(=O)N[C@@H](Cc1ccccc1)C(=O)N[C@H](C(=O)N[C@@H](CC(N)=O)C(=O)N[C@@H](Cc1c[nH]c2ccccc12)C(=O)N[C@@H](CC(C)C)C(=O)N[C@@H](CC(C)C)C(=O)N[C@@H](C)C(=O)N[C@@H](CCC(N)=O)C(=O)N[C@@H](CCCCN)C(=O)NCC(=O)N[C@@H](CCCCN)C(=O)N[C@@H](CCCCN)C(=O)N[C@@H](CC(N)=O)C(=O)N[C@@H](CC(=O)O)C(=O)N[C@@H](Cc1c[nH]c2ccccc12)C(=O)N[C@@H](CCCCN)C(=O)N[C@@H](Cc1c[nH]cn1)C(=O)N[C@@H](CC(N)=O)C(=O)N[C@H](C(=O)N[C@H](C(=O)N[C@@H](CCC(N)=O)C(=O)O)[C@@H](C)O)[C@@H](C)CC)C(C)C)[C@@H](C)CC`, the fragment formed was 33% (Trypsin (Sus scrofa, UniProt P00761); LC-MS, item: fragment 1-30; 18 h, pH 8.0, 37 °C, added: trypsin 2.5 mg/mL).
For `Cc1cnc(C(=O)N[C@H]2CCCCC/C=C\[C@@H]3C[C@@]3(C(=O)NS(=O)(=O)C3CC3)NC(=O)[C@@H]3C[C@@H](Oc4nc5ccccc5c5ccccc45)CN3C2=O)cn1`, “IC50 fold shift” read 2.11 (Cytochrome P450 3A7 (CYP3A7, Homo sapiens, UniProt P24462); enzyme activity, time-dependent inhibitor; recombinant enzyme; 0 min preincubation, with NADPH, added: DHEA-S 5 µM; relative to: 30 min preincubation).
For `COc1c(O)c(C)cc2c1C(=O)c1c(cc(O)c(O)c1O)C2=O`, the cell viability was 62.1 ± 8.65% (HepaRG co-cultured with HK-2; MTT; 266.67 µM, 24 h; relative to: untreated control).
The selectivity ratio of `CN(C)C(=O)CN1CCN(c2cnc3c(cc(C(=O)NCc4ccc(Cl)cc4)c(=O)n3CC(=O)N3CC(C)(F)C3)n2)C1=O` is reported as greater than 48.1 (human cytomegalovirus; MRC-5, AD169-GFP; relative to: CC50 over EC50).
`Cc1cc(O)c2c(c1)C(=O)c1cccc(O)c1C2=O` has a cell viability of 87.1 ± 7.09% (HepaRG co-cultured with HK-2; MTT; 33.33 µM, 48 h; relative to: untreated control).
For `CCN(CC)Cc1cc(Nc2ccnc3cc(Cl)ccc23)ccc1O`, the confluence was 0.79 ± 0.2 (COS-7; 30 µM, 24 h, 0.1% DMSO, unit not given; relative to: vehicle control).
The cell viability of `O=C(O)c1cc(O)c2c(c1)C(=O)c1cccc(O[C@@H]3O[C@H](CO)[C@@H](O)[C@H](O)[C@H]3O)c1C2=O` is reported as 98.8 ± 9.42% (HepaRG co-cultured with HK-2; MTT; 66.67 µM, 24 h; relative to: untreated control).
For `CCC(=O)NS(=O)(=O)c1ccc(-c2c(-c3ccccc3)noc2C)cc1`, the metabolic activity was 0.79 ± 0.18 (COS-7; WST-8; 50 µM, 24 h, 0.1% DMSO, unit not given; relative to: vehicle control).
`COc1cnc2c(cc(C(=O)NCc3ccc(Cl)cc3)c(=O)n2CC(=O)N2CC(C)(F)C2)n1` has a selectivity ratio of greater than 106 (human cytomegalovirus; MRC-5, AD169-GFP; relative to: CC50 over EC50).
`Cc1cc(Nc2ccc(S(F)(F)(F)(F)F)cc2)n2nc(C(C)(F)F)nc2n1` — result for “patients with eye disorders”: 0% (Plasmodium falciparum; P. falciparum malaria patients; oral, 250 mg).
For `CN1C(C(=O)Nc2ccccn2)=C(O)c2sc(Cl)cc2S1(=O)=O`, the metabolic activity was 0.96 ± 0.03 (COS-7; WST-8; 100 µM, 24 h, 0.1% DMSO, unit not given; relative to: control).
`O=C(O)CC[C@H](NC(=O)N[C@@H](CCCCNC(=O)[C@H](Cc1ccc2ccccc2c1)NC(=O)CCCCCNC(=O)CN1CCN(CC(=O)O)CCN(CC(=O)O)CCN(CC(=O)O)CC1)C(=O)O)C(=O)O` [gallium-68 labelled] gave a tissue uptake of 26.6 ± 2.47 %ID/g (gamma counting; mouse, 22Rv1 xenograft, kidney; intravenous, 3.7 MBq, 2 h).
`Cc1cc(N)c2c(OCC(C)(C)C(=O)NC(C)C)cccc2n1`: “mean revertant colonies” 26 colonies/plate (Salmonella typhimurium; reverse mutation, plate incorporation; TA98; 50 µg/plate, without S9).
`Cc1onc(-c2ccccc2)c1-c1ccc(S(N)(=O)=O)cc1` gave a metabolic activity of 0.92 ± 0.11 (COS-7; WST-8; 100 µM, 24 h, 0.1% DMSO, unit not given; relative to: control).
For `CC(C)C[C@H](NC(=O)C[C@H](O)[C@H](CC(C)C)NC(=O)[C@H](Cc1c[nH]cn1)NC(=O)CNC(=O)[C@@H](NC(=O)[C@H](C)NC(=O)[C@H](Cc1c[nH]c2ccccc12)NC(=O)[C@H](CCC(N)=O)NC(=O)[C@@H](Cc1ccccc1)NC(=O)COCCOCCNC(=O)CCC(C(=O)O)N1CCN(CC(=O)O)CCN(CC(=O)O)CCN(CC(=O)O)CC1)C(C)C)C(N)=O` (stereo partly shown) [lutetium-177 labelled], the tissue uptake was 24 ± 18 %ID/g (BALB/c nu/nu mice, female, lumbar lymph node metastases; intravenous, 50 pmol, 1 h).
`COc1cc2c(NC3CCN(C)CC3)nc(N3CCCN(C)CC3)nc2cc1OCCCN(C)C` has a viability of 165% (OCI-Ly1; 0.5 µM, 120 h).
`COc1cc2c(c(O)c1OC)C(=O)c1c(cc(C)c(O)c1OC)C2=O` has a cell viability of 71.2 ± 4.9% (HepaRG co-cultured with HK-2; MTT; 133.33 µM, 24 h; relative to: untreated control).
For `CC[C@@H]1[C@H](F)C(=O)N[C@@H]1COc1nccc2cc(C(N)=O)c(OC)cc12`, the IC50 was 3900 nM (Serine/threonine-protein kinase MARK2 (MARK2, Homo sapiens, UniProt Q7KZI7); ATP probe binding, KiNativ profiling, item: Lys1 probe site; THP-1 cell lysate).
Under “lung weight change”, `CCc1cc(C(=O)NC)c2nccc(N3CCc4c(cc(Cn5ccnc5)cc4-c4cn(C)nc4C(F)(F)F)C3=O)c2c1` is recorded as 9.34% (Sprague Dawley rat; oral, 50 mg/kg once daily, 7 days; relative to: vehicle).
With `COc1cc(O)c2c(c1)C(=O)c1cc(C)cc(O)c1C2=O` the cell viability was 93.5 ± 14% (HepaRG co-cultured with HK-2; MTT; 66.67 µM, 24 h; relative to: untreated control).
`COCCOCc1ccc(-c2cc3onc(-c4ccccc4)c3c(=O)n2C)cc1` gave a necrotic cells of 0.92 ± 0.14 (COS-7; 3 µM, 24 h, 0.1% DMSO, unit not given; relative to: vehicle control).
The selectivity index of `CN1CCN(c2cnc3c(cc(C(=O)NCc4ccc(Cl)cc4)c(=O)n3CC(=O)N3CC(C)(F)C3)n2)C1=O` is reported as greater than 299 (human cytomegalovirus; GFP reporter; AD169-GFP; retest; relative to: CC50 over EC50).
`CC[C@H](CO)N(CCN(N=O)[C@H](CC)CO)N=O` — result for “revertant colonies per plate”: 33.3 ± 2 (Salmonella typhimurium; mutagenicity, Ames plate incorporation; TA1535; 2500 µg/plate, without S9, methanol).
The apoptotic cells of `CCN1CCN(c2cc(N3CCN(CC)CC3)nc(NCCNc3ccnc4cc(Cl)ccc34)n2)CC1` is reported as 8.49 ± 1.6 (COS-7; 30 µM, 24 h, 0.1% DMSO, unit not given; relative to: vehicle control).
`CC1(C)CN(C(=O)Cn2c(=O)c(C(=O)NCc3ccc(Cl)cc3)cc3nccnc32)C1` gave a selectivity ratio of greater than 19.4 (human cytomegalovirus; MRC-5, AD169-GFP; relative to: CC50 over EC50).
For `CC(C)C[C@H](NC(=O)C[C@H](O)[C@H](CC(C)C)NC(=O)[C@H](Cc1c[nH]cn1)NC(=O)CNC(=O)[C@@H](NC(=O)[C@H](C)NC(=O)[C@H](Cc1c[nH]c2ccccc12)NC(=O)[C@H](CCC(N)=O)NC(=O)[C@@H](Cc1ccccc1)NC(=O)COCCOCCNC(=O)CCC(C(=O)O)N1CCN(CC(=O)O)CCN(CC(=O)O)CC1)C(C)C)C(N)=O` (stereo partly shown) [lutetium-177 labelled], the tissue uptake was 5.4 ± 0.3 %ID/g (female BALB/c nu/nu mice, kidneys; intravenous, 50 pmol, 1 h).

Repeated from above:
`O=C(O)CC[C@H](NC(=O)N[C@@H](CCCCNC(=O)[C@H](Cc1ccc2ccccc2c1)NC(=O)CCCCCNC(=O)CN1CCN(CC(=O)O)CCN(CC(=O)O)CCN(CC(=O)O)CC1)C(=O)O)C(=O)O` [gallium-68 labelled] gave a tissue uptake of 26.6 ± 2.47 %ID/g (gamma counting; mouse, 22Rv1 xenograft, kidney; intravenous, 3.7 MBq, 2 h).
For `CCC(=O)NS(=O)(=O)c1ccc(-c2c(-c3ccccc3)noc2C)cc1`, the metabolic activity was 0.79 ± 0.18 (COS-7; WST-8; 50 µM, 24 h, 0.1% DMSO, unit not given; relative to: vehicle control).
`COc1cccc2c(Nc3ccc4[nH]c(C(=O)N/N=C/c5ccc(SC)cc5)cc4c3)cc(C)nc12` has a necrotic cells of 0.61 ± 0.23 (COS-7; 3 µM, 24 h, 0.1% DMSO, unit not given; relative to: vehicle control).
The EC50 of `CN1CC2c3ccccc3Oc3ccc(Cl)cc3C2C1` (stereo not shown) is reported as 24.8 nM (5-hydroxytryptamine receptor 1A (HTR1A, Homo sapiens, UniProt P08908, K345A/K405A); agonist).
